# Values quoted from earlier work that unrelated publications cite.
# Each numbered part shows a few of the values that one paper quotes. “And” joins repeats or separate records; there may be more than shown. ± gives the spread as reported.

# Block 1
# Target: HLA class I histocompatibility antigen, A alpha chain, allele A*80:01 (Homo sapiens, UniProt P04439)
# Read-out: peptide-MHC binding
# Molecule type: peptide
Molecule,IC50
QCFSVVLRY,0.011 µM
DEFLKVPEW,> 20 µM
RAWDPQPAM,> 20 µM
ATPHSVWVF,> 20 µM
KVVPRRKAK,20 µM
KSAAIDGEY,0.0447 µM
QLFPELECF,> 20 µM
ATATWFQYY,0.0147 µM
VSFDQNLDY,0.019 µM
SMRSRARHI,> 20 µM
WLYDLWGQL,> 20 µM
MGFPSLATK,> 20 µM
LSIIFGRSY,> 20 µM
MPWLDNIVE,> 20 µM
KAYKIISLK,> 20 µM
FEFILRYGD,> 20 µM
FTGWRDPGL,> 20 µM
RRRPVTRPL,> 20 µM
PLFPGITRV,> 20 µM
VFSDGRVAC,> 20 µM
LQKIPLQWF,> 20 µM
KVGFIMLFH,0.001 µM
YLQYSISTA,> 20 µM
YQAENSTAE,> 20 µM
TVFCFFNYI,> 20 µM

# Single results of other studies
# ache: Acetylcholinesterase (ache, Electrophorus electricus, UniProt O42275)
# UniProt O42275, sequence (whole entry, looked up): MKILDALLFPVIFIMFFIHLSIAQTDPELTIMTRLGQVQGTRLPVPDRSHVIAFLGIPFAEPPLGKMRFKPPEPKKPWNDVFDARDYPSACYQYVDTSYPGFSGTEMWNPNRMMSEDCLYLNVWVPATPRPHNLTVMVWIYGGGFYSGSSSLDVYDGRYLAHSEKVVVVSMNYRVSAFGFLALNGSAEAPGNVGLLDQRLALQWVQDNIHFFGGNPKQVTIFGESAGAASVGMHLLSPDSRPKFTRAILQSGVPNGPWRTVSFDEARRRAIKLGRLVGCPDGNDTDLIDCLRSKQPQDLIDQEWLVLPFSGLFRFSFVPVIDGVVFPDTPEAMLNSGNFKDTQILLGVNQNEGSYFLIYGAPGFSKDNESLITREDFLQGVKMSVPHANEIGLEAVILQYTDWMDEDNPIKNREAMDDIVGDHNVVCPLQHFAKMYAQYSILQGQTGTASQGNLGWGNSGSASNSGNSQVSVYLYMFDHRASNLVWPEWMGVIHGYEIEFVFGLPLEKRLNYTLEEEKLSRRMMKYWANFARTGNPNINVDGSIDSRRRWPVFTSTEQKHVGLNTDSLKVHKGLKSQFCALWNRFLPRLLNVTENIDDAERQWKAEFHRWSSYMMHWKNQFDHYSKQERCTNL
# Ar: Androgen receptor (Ar, Rattus norvegicus, UniProt P15207)
# UniProt P15207, sequence (whole entry, looked up): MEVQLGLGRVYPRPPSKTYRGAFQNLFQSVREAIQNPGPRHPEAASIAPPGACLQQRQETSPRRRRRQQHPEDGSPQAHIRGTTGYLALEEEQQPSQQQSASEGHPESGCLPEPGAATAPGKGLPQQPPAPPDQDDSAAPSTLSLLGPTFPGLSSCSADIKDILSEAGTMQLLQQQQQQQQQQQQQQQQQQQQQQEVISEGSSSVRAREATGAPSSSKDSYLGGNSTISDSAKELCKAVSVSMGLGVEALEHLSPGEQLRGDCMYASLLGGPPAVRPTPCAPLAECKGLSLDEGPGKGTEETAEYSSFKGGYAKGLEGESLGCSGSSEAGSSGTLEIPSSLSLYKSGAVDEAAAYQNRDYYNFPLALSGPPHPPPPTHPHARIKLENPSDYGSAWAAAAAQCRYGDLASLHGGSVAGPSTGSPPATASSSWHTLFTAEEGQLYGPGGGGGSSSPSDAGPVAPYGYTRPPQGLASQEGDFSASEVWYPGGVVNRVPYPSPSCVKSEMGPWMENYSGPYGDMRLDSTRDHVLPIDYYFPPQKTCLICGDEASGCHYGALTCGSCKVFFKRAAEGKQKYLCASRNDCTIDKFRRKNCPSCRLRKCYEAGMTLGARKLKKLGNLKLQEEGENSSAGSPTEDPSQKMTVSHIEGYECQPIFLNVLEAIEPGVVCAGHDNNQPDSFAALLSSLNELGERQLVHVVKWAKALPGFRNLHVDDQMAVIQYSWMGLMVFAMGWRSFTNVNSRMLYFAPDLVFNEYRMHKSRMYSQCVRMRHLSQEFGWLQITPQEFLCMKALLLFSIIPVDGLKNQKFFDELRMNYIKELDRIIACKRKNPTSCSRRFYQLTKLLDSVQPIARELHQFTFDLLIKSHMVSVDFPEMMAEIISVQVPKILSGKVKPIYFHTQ
Substance,tested on,assay,system,setting,scale,quantity,result
COC(=O)CCOC(=O)c1cncn1[C@H](C)c1ccccc1,,,rat blood,,,metabolic half-life,24.6 s
Clc1cc2c(cc1Cl)Oc1cc(Cl)c(Cl)cc1O2,common carp AHR,"reporter gene, agonist",Cyprinus carpio,,,EC50,0.0188 ± 0.00678 µM
CC(NCCc1ccc(O)cc1)C(O)c1ccc(O)cc1 (centres unmarked),,,"human, plasma","dose not given, range of reported values",,AUC,30 to 322 nM·h
O=c1c(O)c(-c2ccc(O)c(O)c2)oc2cc(O)cc(O)c12,Zika virus NS2B-NS3 protease,"enzyme activity, inhibitor",,"pH 8.5, 20% glycerol",,IC50,2.4 ± 0.2 µM
Cc1cc(/C=C/C#N)cc(C)c1Nc1ccnc(Nc2ccc(C#N)cc2)n1,"Gag-Pol polyprotein, reverse transcriptase (gag-pol, Human immunodeficiency virus 1, UniProt P03366)",inhibitor,,,,IC50,0.015 to 0.022 µM
CC[C@H](C)CCCCC(=O)N[C@@H](CCN)C(=O)N[C@H](C(=O)N[C@@H](CCN)C(=O)N[C@H]1CCNC(=O)[C@H]([C@@H](C)O)NC(=O)[C@H](CCN)NC(=O)[C@H](CCN)NC(=O)[C@H](CC(C)C)NC(=O)[C@@H](CC(C)C)NC(=O)[C@H](CCN)NC1=O)[C@@H](C)O,,,patients,5 mg/kg/day,,nephrotoxicity incidence,69%
O=C(/C=C/c1ccc(O)c(O)c1)O[C@H](Cc1ccc(O)c(O)c1)C(=O)O,ache,,,,,Ki,0.042 nM
COc1cc2oc(-c3ccc(O)c(O)c3)cc(=O)c2c(O)c1O,hepatitis C virus,viral replication,genotype 2a JFH-1,,,EC50,52 µM
C#C[C@]1(O)CC[C@H]2[C@@H]3CCc4cc(O)ccc4[C@H]3CC[C@@]21C,,,"human, plasma","dose not given, range of reported values",,AUC,1 to 3500 nM·h
C=C[C@@]1(O)CN2CC[C@H]1C[C@@H]2[C@@H](O)c1ccnc2ccc(OC)cc12,,,plasma,,,fraction unbound in plasma,0.41
CN1COCN(Cc2cnc(Cl)s2)/C1=N\[N+](=O)[O-],,,soil,"0.12 nominal, 0 days, Folsomia candida soil test",,recovery,75%
NC1CCCCC1N.O=C([O-])C(=O)[O-].[Pt+2] (centres unmarked),,item: total platinum,"mouse, plasma","intraperitoneal, 5 mg Pt/kg",,clearance,0.216 L/h/kg
C[C@H](c1ccccc1)n1cncc1C(=O)OCCC(=O)O,,,rat,"MOC-etomidate infusion, end of 30 min infusion",,blood concentration,1170 ± 48 µM
Thimerosal,Caco-2,,,,,CC50,13.5 ± 1.23 µM
C[C@]12CC[C@@H]3c4ccc(O)cc4C[C@@H](CCCCCCCCC[S+]([O-])CCCC(F)(F)C(F)(F)F)[C@H]3[C@@H]1CC[C@@H]2O (some centres unmarked),Ar,validation reference set,,concentration not given,,AR binding call,inactive
CN[C@H](CC(=O)O)C(=O)O,"Glutamate receptor ionotropic, NMDA 2B, with GluN1 (Grin2b, Rattus norvegicus, UniProt Q00960)",,,concentration not given,,EC50,21.4 µM and 21 µM
N.N.[Cl][Pt][Cl],,item: total platinum,mouse,"intravenous, 2.6 mg Pt/kg",,clearance,0.0892 L/h/kg
COc1ccc2c(c1)CN[C@@H](C(=O)N[C@H](CN1CC[C@@](C)(c3cccc(O)c3)[C@@H](C)C1)C(C)C)C2,delta opioid receptor (human),antagonist,,added: DPDPE,,Ke,118 ± 45 nM
C[C@@H](N)C1CCN(S(=O)(=O)c2cccc3cnccc23)CC1,,,rat,,,NOAEL,25 mg/kg/day
CC(=O)SCC[N+](C)(C)C,butyrylcholinesterase,,,concentration not given,,substrate activation factor b,3.6
CCCCCc1cc(O)cc(O)c1,ache,,,,,Ki,65.9 nM
C[C@]12C=CC3=C4CCC(=O)C=C4CC[C@H]3[C@@H]1CC[C@@H]2O,Ar,,,concentration not given,,activity class,active
Cc1ccnc2c1NC(=O)c1cccnc1N2C1CC1,HIV-1 reverse transcriptase V179D,,,enzyme,baseline: mutant over wild type,IC50 fold change,0.9 fold
OC[C@H]1OC(O)[C@H](O)[C@@H](O)[C@@H]1O (some centres unmarked),human hexokinase 4 N204A,substrate,,,,K0.5,976 ± 89 mM
Oc1ccc2c3c1O[C@H]1c4[nH]c5c(c4C[C@@]4(O)[C@@H](C2)N(CC2CC2)CC[C@]314)C[C@@]1(O)[C@H]2Cc3ccc(O)c4c3[C@@]1(CCN2CC1CC1)[C@H]5O4,,,"mouse, brain","subcutaneous, dose not given",,duration of detection,21 days

# Excerpt of the above (single results of other studies):
Substance,tested on,assay,system,setting,scale,quantity,result
C[C@]12CC[C@@H]3c4ccc(O)cc4C[C@@H](CCCCCCCCC[S+]([O-])CCCC(F)(F)C(F)(F)F)[C@H]3[C@@H]1CC[C@@H]2O (some centres unmarked),Ar,validation reference set,,concentration not given,,AR binding call,inactive
Cc1ccnc2c1NC(=O)c1cccnc1N2C1CC1,HIV-1 reverse transcriptase V179D,,,enzyme,baseline: mutant over wild type,IC50 fold change,0.9 fold
CC[C@H](C)CCCCC(=O)N[C@@H](CCN)C(=O)N[C@H](C(=O)N[C@@H](CCN)C(=O)N[C@H]1CCNC(=O)[C@H]([C@@H](C)O)NC(=O)[C@H](CCN)NC(=O)[C@H](CCN)NC(=O)[C@H](CC(C)C)NC(=O)[C@@H](CC(C)C)NC(=O)[C@H](CCN)NC1=O)[C@@H](C)O,,,patients,5 mg/kg/day,,nephrotoxicity incidence,69%
N.N.[Cl][Pt][Cl],,item: total platinum,mouse,"intravenous, 2.6 mg Pt/kg",,clearance,0.0892 L/h/kg
COc1cc2oc(-c3ccc(O)c(O)c3)cc(=O)c2c(O)c1O,hepatitis C virus,viral replication,genotype 2a JFH-1,,,EC50,52 µM
CC(=O)SCC[N+](C)(C)C,butyrylcholinesterase,,,concentration not given,,substrate activation factor b,3.6
